Measured values from different studies.
Numbered parts are unrelated; each lists some results of a single study. Substitutions count along the parent as printed.

Study 1
Target: ABI1, truncated, D143A, DHFR fusion (Arabidopsis thaliana)
Method: DHFR PCA, deep sequencing
Medium: yeast
Notes: methotrexate growth selection, single substitutions
With: (+)-ABA 200 µM
Baseline: wild-type fitted maximum
Reading: higher = stronger binding
Starting sequence: PYL1, truncated, DHFR fusion (Arabidopsis thaliana); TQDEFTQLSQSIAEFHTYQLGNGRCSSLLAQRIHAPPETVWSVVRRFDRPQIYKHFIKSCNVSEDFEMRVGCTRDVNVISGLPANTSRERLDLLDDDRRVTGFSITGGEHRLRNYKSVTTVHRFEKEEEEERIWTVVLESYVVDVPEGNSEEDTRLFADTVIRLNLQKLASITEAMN; partner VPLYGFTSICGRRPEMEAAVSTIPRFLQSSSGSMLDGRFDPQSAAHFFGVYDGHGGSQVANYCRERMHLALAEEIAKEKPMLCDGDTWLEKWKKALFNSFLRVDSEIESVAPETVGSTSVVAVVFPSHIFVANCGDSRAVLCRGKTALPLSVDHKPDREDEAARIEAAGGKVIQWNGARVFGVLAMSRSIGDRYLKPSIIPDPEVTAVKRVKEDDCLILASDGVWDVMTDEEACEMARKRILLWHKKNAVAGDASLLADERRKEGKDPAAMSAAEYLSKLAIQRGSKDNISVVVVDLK
`R98N` — result for “relative binding score”: 122%.
For `T154F`, “relative binding score” read -15.6%.
For `L93C`, “relative binding score” read 106%.
`L94Q`: “relative binding score” 58%.
Under “relative binding score”, `R32H` is recorded as 108%.
Under “relative binding score”, `V145Y` is recorded as 31.2%.
`R113H`: “relative binding score” 107%.
Under “relative binding score”, `T120F` is recorded as -11.8%.
`E127P`: “relative binding score” 110%.
`M68H` — result for “relative binding score”: 101%.
`F47H` — result for “relative binding score”: -20%.
Under “relative binding score”, `A158I` is recorded as 99.6%.
`V161P` — result for “relative binding score”: -8.01%.
`H110N` — result for “relative binding score”: 104%.
`Y53E` — result for “relative binding score”: 13.8%.
`L138W` — result for “relative binding score”: 21.5%.
Under “relative binding score”, `V43T` is recorded as 83%.
For `E151R`, “relative binding score” read 92.2%.
Under “relative binding score”, `F66V` is recorded as 97.2%.
Under “relative binding score”, `N61F` is recorded as 101%.
`R98D`: “relative binding score” 81.1%.
For `G102V`, “relative binding score” read 43.6%.
`R45A`: “relative binding score” 66%.
`S104K` — result for “relative binding score”: 59.3%.
`T135W` — result for “relative binding score”: -1.55%.

Study 2
Target: Interferon regulatory factor 5, full length, phosphomimetic (IRF5, Homo sapiens, UniProt Q13568-2, residues 1-514, S451D/S453D/S456D/S462D)
Method: protein-binding microarray
Molecule type: double-stranded DNA, one strand shown
Medium: in vitro
Tested at: 940 nM top
Notes: 60-bp whole probe
With: salmon DNA 0.4 mg/ml
Baseline: random background probes
Reading: higher = stronger binding
All sequences stand within: GCCTAGCAC … GTCTTGATTCGCTTGACGCTGCTG
For `GACGCTTCCCTTTTCCTGACGTGCTAG`, “fitted relative affinity” read 1.4 z-score.
`TCAGATTTCCACTTTCTACTGTGCTAG`: “fitted relative affinity” 1.3 z-score.
`TTAGGTTCCGGTTTCGGTTGGTGCTAG` — result for “fitted relative affinity”: 9.04 z-score.
For `GACGGACTGCTTCTCCTGGCGTGCTAG`, “fitted relative affinity” read -0.0638 z-score.
`TCAAGTCCCACATCTCTGACTGTGCTA`: “fitted relative affinity” 0.318 z-score.
Under “fitted relative affinity”, `GACGGACTGGGACCGGGGACGTGCTAG` is recorded as -0.5 z-score.
Under “fitted relative affinity”, `CACGGTTTCGGTTTCGGGACGTGCTAG` is recorded as 13.4 z-score.
For `GACGATTACAGTTCCGAGACGTGCTAG`, “fitted relative affinity” read 0.309 z-score.
Under “fitted relative affinity”, `CTCTGCTTGTGTCTGGGATTGTGCTAG` is recorded as -0.133 z-score.
Under “fitted relative affinity”, `TTAGGTTTCGGGTTTCGGTCAGTGCTA` is recorded as 11 z-score.
For `AGTGTTTCCCCTATTTAAGAGTGCTAG`, “fitted relative affinity” read 1.49 z-score.
Under “fitted relative affinity”, `TTTTTTTTACTTCGGGTGACGTGCTAG` is recorded as 0.91 z-score.
`GACGGTTTCGGTCTTGGGACGTGCTAG`: “fitted relative affinity” 12.3 z-score.
Under “fitted relative affinity”, `TTAGGTATCGGACTGGGTGAGTGCTAG` is recorded as 3.35 z-score.
Under “fitted relative affinity”, `TGAGGTTTCCTACTGCTTTAGTGCTAG` is recorded as 0.57 z-score.
`TCATGATTGGTTGAACAACTGTGCTAG`: “fitted relative affinity” -0.357 z-score.
For `TTTTTTTTCATCATTGCCTGGTGCTAG`, “fitted relative affinity” read 1.55 z-score.
`TTAGGACTGGACTTTCGGGTAGTGCTA` — result for “fitted relative affinity”: 0.851 z-score.
Under “fitted relative affinity”, `GCTTTTATCCCTGACAGAAGGTGCTAG` is recorded as 0.411 z-score.

Study 3
Target: Prothrombin, mature alpha-thrombin (F2, Homo sapiens, UniProt P00734)
Method: aptamer microarray, sandwich
Molecule type: DNA with 2'F-ANA
Medium: in vitro
Tested at: 200 nM
Notes: whole 15-mer aptamer, many near background
With: Cy3 exosite-II aptamer, 400 nM
Reading: higher = stronger binding
Strand: GGTTGGTGTGGTTGG
Under “mean fluorescence intensity”, `2'F-ANA at 1 4 6 7 10 11 12 13 14` is recorded as 44.5 a.u.
`2'F-ANA at 3 4 6 8 11 13 14` — result for “mean fluorescence intensity”: 236 a.u.
`2'F-ANA at 3 5 7 9 15`: “mean fluorescence intensity” 128 a.u.
`2'F-ANA at 1 2 3 5 8 12 14`: “mean fluorescence intensity” 52.4 a.u.
`2'F-ANA at 1 2 3 6 7 8 10 11 14`: “mean fluorescence intensity” 55.2 a.u.
`2'F-ANA at 3 5 7 8 9` — result for “mean fluorescence intensity”: 165 a.u.
For `2'F-ANA at 2 5 6 10 11 12`, “mean fluorescence intensity” read 48.5 a.u.
For `2'F-ANA at 1 2 3 5 6 7 8 11 12 13 14`, “mean fluorescence intensity” read 49.3 a.u.
`2'F-ANA at 4 5 6 7 8 9 11 13 15`: “mean fluorescence intensity” 348 a.u.
Under “mean fluorescence intensity”, `2'F-ANA at 1 2 3 4 5 8 9 10 12 15` is recorded as 48.8 a.u.
`2'F-ANA at 2 4 6 7 10 11 12 13` — result for “mean fluorescence intensity”: 87.3 a.u.
Under “mean fluorescence intensity”, `2'F-ANA at 1 2 4 5 9 11 12 15` is recorded as 93.5 a.u.
`2'F-ANA at 1 3 4 5 7 10 14 15`: “mean fluorescence intensity” 46.7 a.u.
`2'F-ANA at 1 3 4 5 6 8 11 13 15` — result for “mean fluorescence intensity”: 59.4 a.u.
Under “mean fluorescence intensity”, `2'F-ANA at 3 6 7 9 10 12 14 15` is recorded as 402 a.u.
`2'F-ANA at 1 6 7 8 10 11 12 13` — result for “mean fluorescence intensity”: 62.8 a.u.
`2'F-ANA at 1 2 4 6 9 11 13 14`: “mean fluorescence intensity” 61.6 a.u.
`2'F-ANA at 1 5 6 8 10 14` — result for “mean fluorescence intensity”: 67.3 a.u.
For `2'F-ANA at 1 3 12 13 15`, “mean fluorescence intensity” read 499 a.u.
`2'F-ANA at 1 6 7 8 9 10 11 13 14`: “mean fluorescence intensity” 45.9 a.u.
Under “mean fluorescence intensity”, `2'F-ANA at 1 3 4 6 7 8 9 10 11 12 14 15` is recorded as 55.4 a.u.
For `2'F-ANA at 1 2 3 4 6 7 10 11 15`, “mean fluorescence intensity” read 70.8 a.u.
Under “mean fluorescence intensity”, `2'F-ANA at 1 3 4 9 10 12` is recorded as 87.1 a.u.
`2'F-ANA at 2 3 4 5 6 7 10 11 12 13`: “mean fluorescence intensity” 59.5 a.u.

Study 4
Target: CCNF, cyclin fold, Cln2 fusion (human)
Method: yeast growth competition, sequencing
Medium: yeast
Notes: strong parent motif
Baseline: not given
Reading: higher = stronger binding
Starting sequence: DBF4B docking peptide (human); LGYLYLLLTQSLW
`S11A` — result for “normalised enrichment score”: 1.94.
`Q10A` — result for “normalised enrichment score”: 2.99.
`L6A`: “normalised enrichment score” 2.01.
`G2A` — result for “normalised enrichment score”: 1.9.
Under “normalised enrichment score”, `Y5A` is recorded as 2.14.
`L4A` — result for “normalised enrichment score”: 2.14.
For `Y3A`, “normalised enrichment score” read 1.22.
